Measurements pooled from the literature.
Every numbered part comes from another study and shows a few of its results, in no order. Positions count from the first letter of the parent shown.
UniProt P49841, sequence (whole entry, looked up): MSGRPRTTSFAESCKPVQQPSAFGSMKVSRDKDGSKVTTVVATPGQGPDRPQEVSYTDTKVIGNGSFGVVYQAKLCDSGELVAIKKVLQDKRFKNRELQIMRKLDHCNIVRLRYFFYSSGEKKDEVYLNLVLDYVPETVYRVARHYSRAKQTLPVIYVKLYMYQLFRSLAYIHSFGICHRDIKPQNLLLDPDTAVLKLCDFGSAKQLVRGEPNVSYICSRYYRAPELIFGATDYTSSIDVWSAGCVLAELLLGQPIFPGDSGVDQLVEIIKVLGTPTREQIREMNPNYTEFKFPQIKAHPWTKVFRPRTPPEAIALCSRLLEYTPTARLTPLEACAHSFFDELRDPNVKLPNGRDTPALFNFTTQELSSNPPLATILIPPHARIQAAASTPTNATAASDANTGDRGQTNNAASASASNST
UniProt P11362, sequence (whole entry, looked up): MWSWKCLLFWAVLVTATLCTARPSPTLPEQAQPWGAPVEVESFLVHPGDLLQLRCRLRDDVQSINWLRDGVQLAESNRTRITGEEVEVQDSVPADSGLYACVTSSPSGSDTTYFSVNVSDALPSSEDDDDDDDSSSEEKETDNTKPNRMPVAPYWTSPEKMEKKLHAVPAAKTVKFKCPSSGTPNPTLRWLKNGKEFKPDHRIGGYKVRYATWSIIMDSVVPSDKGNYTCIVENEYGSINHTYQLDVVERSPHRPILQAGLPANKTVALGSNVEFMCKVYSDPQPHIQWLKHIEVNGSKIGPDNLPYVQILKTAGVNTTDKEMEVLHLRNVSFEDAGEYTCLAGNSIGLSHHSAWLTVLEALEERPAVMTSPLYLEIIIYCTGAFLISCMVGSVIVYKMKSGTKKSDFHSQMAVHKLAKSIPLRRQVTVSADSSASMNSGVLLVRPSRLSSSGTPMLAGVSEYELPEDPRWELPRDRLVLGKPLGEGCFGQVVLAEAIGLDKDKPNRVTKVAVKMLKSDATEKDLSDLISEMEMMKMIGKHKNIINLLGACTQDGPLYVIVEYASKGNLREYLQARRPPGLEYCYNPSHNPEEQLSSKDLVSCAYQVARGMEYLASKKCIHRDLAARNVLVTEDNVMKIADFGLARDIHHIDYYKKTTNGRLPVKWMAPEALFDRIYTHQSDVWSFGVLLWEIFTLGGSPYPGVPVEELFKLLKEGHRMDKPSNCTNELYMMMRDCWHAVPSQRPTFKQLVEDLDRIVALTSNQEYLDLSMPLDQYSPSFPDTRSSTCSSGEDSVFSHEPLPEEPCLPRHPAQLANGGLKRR
UniProt Q56UN5, sequence (whole entry, looked up): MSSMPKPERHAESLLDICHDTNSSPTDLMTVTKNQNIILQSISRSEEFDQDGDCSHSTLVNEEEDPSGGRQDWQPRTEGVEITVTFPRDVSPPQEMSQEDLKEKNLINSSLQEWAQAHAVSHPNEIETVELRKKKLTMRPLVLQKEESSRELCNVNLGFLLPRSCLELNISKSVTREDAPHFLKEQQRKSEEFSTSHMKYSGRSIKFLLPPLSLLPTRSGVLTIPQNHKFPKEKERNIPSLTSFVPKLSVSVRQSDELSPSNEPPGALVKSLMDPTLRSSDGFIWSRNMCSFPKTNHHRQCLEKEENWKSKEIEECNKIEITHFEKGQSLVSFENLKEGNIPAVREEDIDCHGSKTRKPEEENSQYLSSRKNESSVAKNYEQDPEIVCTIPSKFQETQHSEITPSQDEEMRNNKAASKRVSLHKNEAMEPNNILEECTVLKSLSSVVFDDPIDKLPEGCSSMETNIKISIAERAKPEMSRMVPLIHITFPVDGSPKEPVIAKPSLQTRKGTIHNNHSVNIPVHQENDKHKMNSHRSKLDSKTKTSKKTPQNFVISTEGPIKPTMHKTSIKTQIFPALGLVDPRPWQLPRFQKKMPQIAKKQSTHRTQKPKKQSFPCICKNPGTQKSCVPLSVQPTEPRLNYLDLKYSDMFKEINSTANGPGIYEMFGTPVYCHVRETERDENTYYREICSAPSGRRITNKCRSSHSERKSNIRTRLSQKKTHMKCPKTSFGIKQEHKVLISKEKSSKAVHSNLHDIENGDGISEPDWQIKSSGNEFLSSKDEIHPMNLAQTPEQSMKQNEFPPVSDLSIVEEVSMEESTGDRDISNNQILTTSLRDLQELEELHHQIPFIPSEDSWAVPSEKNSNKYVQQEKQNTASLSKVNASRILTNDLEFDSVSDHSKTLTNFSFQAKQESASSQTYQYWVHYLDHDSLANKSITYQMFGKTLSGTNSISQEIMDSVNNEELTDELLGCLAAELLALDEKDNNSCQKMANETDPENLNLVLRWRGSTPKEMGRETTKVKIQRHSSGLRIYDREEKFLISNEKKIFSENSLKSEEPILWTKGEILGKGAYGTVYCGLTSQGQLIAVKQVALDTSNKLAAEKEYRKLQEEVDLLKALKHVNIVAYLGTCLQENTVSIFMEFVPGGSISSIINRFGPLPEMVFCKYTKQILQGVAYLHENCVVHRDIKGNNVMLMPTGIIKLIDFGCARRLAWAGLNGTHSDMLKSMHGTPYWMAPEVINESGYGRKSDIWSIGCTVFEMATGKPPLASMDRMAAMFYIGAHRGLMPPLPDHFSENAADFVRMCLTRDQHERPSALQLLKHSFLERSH
UniProt P52333, sequence (whole entry, looked up): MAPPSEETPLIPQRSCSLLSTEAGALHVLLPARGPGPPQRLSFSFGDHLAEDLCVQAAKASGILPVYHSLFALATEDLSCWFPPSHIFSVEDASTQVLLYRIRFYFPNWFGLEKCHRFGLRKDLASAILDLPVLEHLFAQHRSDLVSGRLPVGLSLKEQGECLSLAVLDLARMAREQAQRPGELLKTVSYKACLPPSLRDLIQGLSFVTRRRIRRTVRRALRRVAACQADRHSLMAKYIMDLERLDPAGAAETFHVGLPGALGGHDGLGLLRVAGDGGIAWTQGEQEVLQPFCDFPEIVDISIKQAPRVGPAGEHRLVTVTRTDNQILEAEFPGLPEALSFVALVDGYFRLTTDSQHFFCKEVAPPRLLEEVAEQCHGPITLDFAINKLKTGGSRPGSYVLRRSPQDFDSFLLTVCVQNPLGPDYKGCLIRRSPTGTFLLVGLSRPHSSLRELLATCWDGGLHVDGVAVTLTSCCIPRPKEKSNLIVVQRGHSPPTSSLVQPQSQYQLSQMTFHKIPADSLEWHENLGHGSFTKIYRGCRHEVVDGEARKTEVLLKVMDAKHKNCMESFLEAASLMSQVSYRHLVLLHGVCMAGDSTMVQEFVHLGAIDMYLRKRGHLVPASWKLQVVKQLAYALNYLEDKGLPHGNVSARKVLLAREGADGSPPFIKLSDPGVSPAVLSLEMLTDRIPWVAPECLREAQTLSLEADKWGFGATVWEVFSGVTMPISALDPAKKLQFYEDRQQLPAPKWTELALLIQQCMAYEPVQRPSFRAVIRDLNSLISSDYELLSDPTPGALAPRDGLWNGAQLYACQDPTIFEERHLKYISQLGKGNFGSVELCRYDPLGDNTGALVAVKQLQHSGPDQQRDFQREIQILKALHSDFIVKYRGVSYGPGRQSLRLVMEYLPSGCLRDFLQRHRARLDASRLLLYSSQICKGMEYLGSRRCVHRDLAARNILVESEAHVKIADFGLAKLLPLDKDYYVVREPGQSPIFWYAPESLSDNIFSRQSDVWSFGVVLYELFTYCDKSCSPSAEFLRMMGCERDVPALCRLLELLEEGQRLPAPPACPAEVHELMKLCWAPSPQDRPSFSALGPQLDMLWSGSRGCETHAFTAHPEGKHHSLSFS
UniProt Q02763, sequence (whole entry, looked up): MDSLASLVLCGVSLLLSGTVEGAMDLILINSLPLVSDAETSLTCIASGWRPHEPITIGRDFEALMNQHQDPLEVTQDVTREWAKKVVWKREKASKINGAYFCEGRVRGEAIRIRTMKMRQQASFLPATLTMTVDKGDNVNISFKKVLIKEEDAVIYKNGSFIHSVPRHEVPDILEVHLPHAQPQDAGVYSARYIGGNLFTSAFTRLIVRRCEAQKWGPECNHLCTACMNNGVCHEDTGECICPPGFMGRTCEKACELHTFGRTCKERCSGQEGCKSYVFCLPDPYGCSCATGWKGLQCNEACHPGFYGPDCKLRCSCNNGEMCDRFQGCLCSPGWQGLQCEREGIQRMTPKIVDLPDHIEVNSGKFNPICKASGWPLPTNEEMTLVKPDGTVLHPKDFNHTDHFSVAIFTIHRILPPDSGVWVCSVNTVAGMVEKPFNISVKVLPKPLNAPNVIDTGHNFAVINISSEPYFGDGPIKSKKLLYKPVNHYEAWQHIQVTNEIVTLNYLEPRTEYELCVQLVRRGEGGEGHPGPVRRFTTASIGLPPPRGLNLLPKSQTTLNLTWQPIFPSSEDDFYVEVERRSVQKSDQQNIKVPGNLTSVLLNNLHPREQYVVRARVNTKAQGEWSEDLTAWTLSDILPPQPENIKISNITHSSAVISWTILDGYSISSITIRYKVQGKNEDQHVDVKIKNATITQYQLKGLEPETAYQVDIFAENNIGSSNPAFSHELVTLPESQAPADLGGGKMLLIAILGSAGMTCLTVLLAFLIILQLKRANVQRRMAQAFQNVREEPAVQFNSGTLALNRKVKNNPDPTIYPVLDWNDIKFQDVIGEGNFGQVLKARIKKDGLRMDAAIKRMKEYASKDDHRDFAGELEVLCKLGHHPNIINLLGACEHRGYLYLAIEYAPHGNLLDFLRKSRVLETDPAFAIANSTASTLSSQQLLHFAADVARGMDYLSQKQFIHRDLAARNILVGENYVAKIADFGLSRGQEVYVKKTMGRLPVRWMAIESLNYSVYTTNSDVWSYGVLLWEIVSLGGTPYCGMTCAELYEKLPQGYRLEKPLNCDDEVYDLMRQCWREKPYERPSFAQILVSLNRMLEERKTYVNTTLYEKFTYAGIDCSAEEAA

Block 1
SMILES: COc1ccc2c(O[C@@H]3C[C@H]4C(=O)N[C@]5(C(=O)O)CC5/C=C\CCCCC[C@H](NC(=O)OC5CCCC5)C(=O)N4C3)cc(-c3csc(NC(=O)C(C)C)n3)nc2c1C (stereo partly drawn)
Effect on: cell-free assay
Method: competition with immobilised ligand
Concentration: 1 µM
Endpoint: remaining binding
Mitogen-activated protein kinase kinase kinase 19 (MAP3K19, Homo sapiens, UniProt Q56UN5): 70%
Ephrin type-A receptor 7 (EPHA7, Homo sapiens, UniProt Q15375): 100%
Maternal embryonic leucine zipper kinase (MELK, Homo sapiens, UniProt Q14680): 44%
Ribosomal protein S6 kinase alpha-6, C-terminal kinase domain (RPS6KA6, Homo sapiens, UniProt Q9UK32): 100%
Receptor-type tyrosine-protein kinase FLT3 (FLT3, Homo sapiens, UniProt P36888, D835V/ITD): 71%
Phosphatidylinositol 4,5-bisphosphate 3-kinase catalytic subunit alpha isoform (PIK3CA, Homo sapiens, UniProt P42336, E542K): 71%
Myosin light chain kinase family member 4 (MYLK4, Homo sapiens, UniProt Q86YV6): 81%
MAP kinase-interacting serine/threonine-protein kinase 2 (MKNK2, Homo sapiens, UniProt Q9HBH9): 70%
Serine/threonine-protein kinase D3 (PRKD3, Homo sapiens, UniProt O94806): 100%
BMP-2-inducible protein kinase (BMP2K, Homo sapiens, UniProt Q9NSY1): 90%
Receptor-type tyrosine-protein kinase FLT3 (FLT3, Homo sapiens, UniProt P36888, D835H): 73%
Serine/threonine-protein kinase PLK1 (PLK1, Homo sapiens, UniProt P53350): 77%
Fibroblast growth factor receptor 1 (FGFR1, Homo sapiens, UniProt P11362): 98%
Glycogen synthase kinase-3 beta (GSK3B, Homo sapiens, UniProt P49841): 100%
Ephrin type-A receptor 8 (EPHA8, Homo sapiens, UniProt P29322): 100%

Block 2
Target: Prothrombin, mature alpha-thrombin (F2, Homo sapiens, UniProt P00734)
Method: aptamer microarray, sandwich
Molecule type: DNA with 2'F-ANA
Matrix: in vitro
Concentration: 200 nM
Notes: whole 15-mer aptamer, many near background
Together with: Cy3 exosite-II aptamer, 400 nM
Direction: higher = stronger binding
Endpoint: mean fluorescence intensity
Oligonucleotide: GGTTGGTGTGGTTGG
2'F-ANA at 1 3 5 6 8 9 11 14 15: 49.2 a.u.
2'F-ANA at 3 5 6 7 8 9 12 14 15: 58.2 a.u.
2'F-ANA at 4 5 9 10 12 13: 47.9 a.u.
2'F-ANA at 1 3 4 9 10 11 12 13 14 15: 53.8 a.u.
2'F-ANA at 1 2 3 4 5 6 7 8 11 14: 50.7 a.u.
2'F-ANA at 3 4 6 7 9 12 13 14: 264 a.u.
2'F-ANA at 2 3 6 8 9 10 11 14: 267 a.u.
2'F-ANA at 2 3 14 15: 490 a.u.

Block 3
Target: CREM, bZIP domain (human)
Method: DHFR protein complementation
Matrix: yeast
Notes: single substitutions, most at no-binding floor
Baseline: wild-type JUN-FOS pair
Direction: higher = stronger binding
Endpoint: binding fitness
Parent: JUN, bZIP domain (human); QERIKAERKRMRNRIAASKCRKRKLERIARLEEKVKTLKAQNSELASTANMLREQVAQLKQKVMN; partner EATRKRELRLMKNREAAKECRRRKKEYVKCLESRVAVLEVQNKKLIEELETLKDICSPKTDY
A40H: -1.4 natural log
R30V: -1.41 natural log
A29V: -1.52 natural log
E32P: -1.52 natural log
Q41L: -1.55 natural log
S43T: -1.26 natural log
A57T: -1.59 natural log
S43C: -1.53 natural log

Block 4
Compound: CC(C)[C@H](CO)Nc1nc(Nc2cccc(Cl)c2)c2ncn(C(C)C)c2n1
Effect on: enzyme activity
Action: inhibitor
Concentration: 0.5 µM
Baseline: control
Endpoint: remaining activity
Glycogen synthase kinase-3 beta (GSK3B, Homo sapiens, UniProt P49841): 103%
Tyrosine-protein kinase FRK (FRK, Homo sapiens, UniProt P42685): 90.2%
Ephrin type-A receptor 3 (EPHA3, Homo sapiens, UniProt P29320): 105%
Fibroblast growth factor receptor 1 (FGFR1, Homo sapiens, UniProt P11362): 80.6%
Serine/threonine-protein kinase ULK2 (ULK2, Homo sapiens, UniProt Q8IYT8): 97.7%
Angiopoietin-1 receptor (TEK, Homo sapiens, UniProt Q02763): 93.8%
Casein kinase I isoform gamma-3 (CSNK1G3, Homo sapiens, UniProt Q9Y6M4): 17.3%
Tyrosine-protein kinase JAK3 (JAK3, Homo sapiens, UniProt P52333): 92.5%
Macrophage-stimulating protein receptor (MST1R, Homo sapiens, UniProt Q04912): 90.6%
Rhodopsin kinase GRK7 (GRK7, Homo sapiens, UniProt Q8WTQ7): 88.8%
Tyrosine-protein kinase ABL2 (ABL2, Homo sapiens, UniProt P42684): 32.2%
MAP kinase-activated protein kinase 2 (MAPKAPK2, Homo sapiens, UniProt P49137): 102%
Ribosomal protein S6 kinase alpha-2 (RPS6KA2, Homo sapiens, UniProt Q15349): 69.4%
Casein kinase I isoform gamma-2 (CSNK1G2, Homo sapiens, UniProt P78368): 32.4%
